Experimental data of several laboratories.
Lines come from different studies, so protocols differ. ± gives the spread as reported. ≈ marks a conversion by molar mass, not a printed value.

| Structure (SMILES) | cell line | assay | test system | setting | how to read | endpoint | result |
| --- | --- | --- | --- | --- | --- | --- | --- |
| COc1ccc2nc3ccc(OC)cc3c(SCCCN)c2c1 | AHH-1 | cytotoxicity |  | 36 h |  | EC50 | > 30 µM |
| CC(=O)O[C@@H]1[C@@H](OC(C)=O)[C@H](Sc2sc(C(=O)c3ccc(Br)cc3)c(N)c2-c2nc3ccccc3s2)OC[C@@H]1OC(C)=O | HEp-2 | cytotoxicity |  | 72 h |  | maximum non-toxic concentration | 90 µg/mL |
| CC[N+]1=C(/C=C/c2ccc(OCCCl)cc2)C(C)(C)c2c1ccc1ccccc21 | BEAS-2B |  |  | 5 µM, 30 min, 37 °C |  | cell membrane permeability | 20.5% |
| Cc1nn(-c2ccc(S(=O)(=O)N[C@H](CO)CC(C)C)cc2)c2nn3nnnc3nc12 | human peripheral blood lymphocytes | DNA damage, alkaline comet |  | 1 µM, 24 h |  | tail DNA | 15.4 ± 1.8% |
| C=C(c1cc(F)c(C(=O)O)c(F)c1)c1cc2c(cc1C)C(C)(C)CCC2(C)C | TK6 | cytotoxicity, GreenScreen |  | together with: rat liver S9 |  | lowest effective concentration | 47.3 µg/mL |
| CC/C=C\C/C=C\C/C=C\C/C=C\C/C=C\C/C=C\CCC(=O)OC(CO)COP(=O)(O)OCC(N)C(=O)O (stereo not drawn) | human brain-like endothelial cell monolayer | LC-MS | in vitro BBB model | 10 µM, 180 min, pH 7.4 |  | Papp | 85.9 ± 4.24 ×10⁻⁶ cm/s |
| CC(=O)[O-].F[P-](F)(F)(F)(F)F.[Cu+2].c1ccc(CN2CCN3CCN(CC2)CCN(Cc2ccccc2)CC3)cc1 | THP-1 | cytotoxicity |  |  |  | IC90 | > 20 µM |
| CCCCn1cc(C(=O)O)c(=O)c2cc(F)c(N)c([N+](=O)[O-])c21 | SW-620 | cell growth, SRB |  | 72 h |  | IC50 | 84.6 ± 5.07 µg/mL (≈ 262 µM) |
| C=CC(=O)N1CCCC(n2c(=O)c3ncccc3n(Cc3ccc(Oc4ccccc4)cc3)c2=O)C1 (stereo not drawn) | HCT-116 and Rec1 |  |  | 0.2 µM | relative to: intracellular over extracellular | intracellular/extracellular ratio | ~5 |
| Cc1cc(C#N)cc(C)c1Oc1nc(NC2CCN(Cc3ccncc3)CC2)nc2ccccc12 | TZM-bl | cell growth or viability, XTT |  |  |  | CC50 | > 0.269 µM |
| OCC1CSC(c2ccc(O)cc2O)S1 (stereo not drawn) | B16-F10 | MTT |  | 25 µM, 24 h | relative to: untreated | viability | 97.4% |
| CC(C)=CCCC(C)C1CCC2(C)C3=C(CCC12C)C1(C)CCC(=O)C(C)(C)C1CC3 (stereo not drawn) | HCT-15 | cell growth or viability, SRB |  | 50 µM |  | inhibition | 12.2% |
| OC[C@H]1O[C@@H](n2cnc3c(O)ncnc32)[C@H](F)[C@@H]1O | SNB-78 | sulforhodamine B |  | 11 days, galactose medium |  | CC50 | > 250 µM |
| CC/C(=C(\c1ccc(O)cc1)c1ccc(OCCN(C)CCOCCOCCOCCOCCOCCOCCOCCOCCOCCN(C)CCOc2ccc(/C(=C(/CC)c3ccccc3)c3ccc(O)cc3)cc2)cc1)c1ccccc1 | U2OS transfected with ERβ |  |  | 10 µM, cytotoxicity |  | cell density | 8% |
| CNc1c(C)n(C)n(-c2ccccc2)c1=O | HepaRG PXR knockout | refers to: CYP2B6 |  | 300 µM, 72 h | relative to: untreated | mRNA level | increased |
| CNCc1ccc2c(c1)N(C(=O)OCc1ccccc1)[C@H](CNC(=N)N)[C@H]2NC(=O)C(=O)Nc1ccc(Cl)c(F)c1 | TZM-bl | cell proliferation |  | 72 h |  | cytotoxic concentration | ≥ 50 µM |
| Cc1cc(C#N)cc(C)c1Oc1nc(NC2CCN(Cc3cccc(F)c3)CC2)nc2ccccc12 | TZM-bl | cell growth or viability, XTT |  |  |  | CC50 | > 0.26 µM |
| OC[C@H]1O[C@@H](OCCCC(F)(F)C(F)(F)C(F)(F)C(F)(F)F)[C@H](O)[C@@H](O)[C@@H]1O | B16-F10 | cytotoxicity, MTT |  | 24 h |  | EC50 | > 250 µM |

For quick reference, copied from above:
| Structure (SMILES) | cell line | assay | test system | setting | how to read | endpoint | result |
| --- | --- | --- | --- | --- | --- | --- | --- |
| OC[C@H]1O[C@@H](OCCCC(F)(F)C(F)(F)C(F)(F)C(F)(F)F)[C@H](O)[C@@H](O)[C@@H]1O | B16-F10 | cytotoxicity, MTT |  | 24 h |  | EC50 | > 250 µM |
| OC[C@H]1O[C@@H](n2cnc3c(O)ncnc32)[C@H](F)[C@@H]1O | SNB-78 | sulforhodamine B |  | 11 days, galactose medium |  | CC50 | > 250 µM |
| COc1ccc2nc3ccc(OC)cc3c(SCCCN)c2c1 | AHH-1 | cytotoxicity |  | 36 h |  | EC50 | > 30 µM |
